# Measured values from different studies.
# Every numbered part comes from another study and shows a few of its results, in no order. Substitutions count along the parent as printed.

# Block 1
# Target: Histone acetyltransferase KAT6A, winged helix 2, GST fusion (KAT6A, Homo sapiens, UniProt Q92794, residues 85-181)
# Technique: protein binding microarray
# Form: double-stranded DNA, one strand shown
# Sample: in vitro
# Concentration: not given
# Notes: 8-mer, flanks averaged, mean of 2 arrays, mostly near background
# Baseline: not given
# Reading: higher = stronger binding
# Construct (chain): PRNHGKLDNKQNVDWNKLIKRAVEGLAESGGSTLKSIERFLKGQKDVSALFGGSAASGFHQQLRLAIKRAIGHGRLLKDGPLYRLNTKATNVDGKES
Strand,E-score
ACGTTCGC,-0.0769
ACTACATC,-0.0581
TGCGAAAA,0.252
GGGGGCGA,0.092
CACCTTGG,-0.11
AATTTGAG,-0.0305
CCAATACG,-0.0615
CCAAATGC,0.087
CGCGGGAA,0.182
CCGGACCG,-0.0062
ACTTCGCT,0.0582
CATACCGG,-0.0525
TGTATGAA,-0.0575
CAATCCCA,-0.0862
GTAGTCTA,-0.145
GATCAAAA,0.00513
GCGCCATA,0.094
CAATGAGG,-0.123

# Block 2
# Target: ABI1, truncated, D143A, DHFR fusion (Arabidopsis thaliana)
# Technique: DHFR PCA, deep sequencing
# Sample: yeast
# Notes: methotrexate growth selection, single substitutions
# Added: (+)-ABA 0.11 µM
# Baseline: wild-type fitted maximum
# Reading: higher = stronger binding
# Starting sequence: PYL1, truncated, DHFR fusion (Arabidopsis thaliana); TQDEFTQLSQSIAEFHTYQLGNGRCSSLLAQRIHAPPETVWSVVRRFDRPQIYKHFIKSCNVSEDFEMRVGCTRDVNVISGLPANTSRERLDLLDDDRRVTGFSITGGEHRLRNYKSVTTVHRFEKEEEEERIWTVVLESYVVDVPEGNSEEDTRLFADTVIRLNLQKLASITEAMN; partner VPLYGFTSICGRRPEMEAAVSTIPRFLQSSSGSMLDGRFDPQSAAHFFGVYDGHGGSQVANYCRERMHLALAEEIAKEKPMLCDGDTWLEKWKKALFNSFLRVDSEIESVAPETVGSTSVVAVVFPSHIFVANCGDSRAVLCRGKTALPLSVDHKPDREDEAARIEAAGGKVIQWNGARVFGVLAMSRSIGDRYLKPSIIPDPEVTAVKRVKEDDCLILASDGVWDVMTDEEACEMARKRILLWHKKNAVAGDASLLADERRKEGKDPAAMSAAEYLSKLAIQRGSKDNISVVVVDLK
Change,relative binding score [%]
S140A,1.41
T120G,-2.85
T86N,35.7
S27I,-4.7
A84L,24.5
R163E,6.92
P50V,27.6
A170S,4.95
I57F,-0.424
I33N,-2.7
P146A,25
D3C,15.4
K126M,42.8
S104M,0.0238
R99S,-2.34
M176N,2.33

# Block 3
# Target: CCND2, cyclin fold, Cln2 fusion (human)
# Technique: yeast growth competition, sequencing
# Sample: yeast
# Notes: weak parent motif
# Baseline: not given
# Reading: higher = stronger binding
# Starting sequence: PKN2 docking peptide (human); VSAVQKLDFSDTM; partner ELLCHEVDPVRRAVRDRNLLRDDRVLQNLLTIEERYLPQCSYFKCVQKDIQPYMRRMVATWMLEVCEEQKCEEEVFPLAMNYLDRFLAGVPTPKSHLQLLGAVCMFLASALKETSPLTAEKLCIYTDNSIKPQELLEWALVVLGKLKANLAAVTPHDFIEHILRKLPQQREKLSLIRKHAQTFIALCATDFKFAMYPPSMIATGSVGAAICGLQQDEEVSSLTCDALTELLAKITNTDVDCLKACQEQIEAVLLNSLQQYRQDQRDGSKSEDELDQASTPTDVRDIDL
Change,normalised enrichment score
V4F,0.215
S10R,0.702
A3Y,0.0557
D11N,0.715
A3C,0.33
D8W,0.36
S2L,0.482
V1Q,0.736
M13E,0.586
A3I,0.586
D11K,0.463
K6M,0.489
S10M,0.578

# Block 4
# Target: Interferon regulatory factor 3, full length, phosphomimetic (IRF3, Homo sapiens, UniProt Q14653, residues 1-427, S386D/S396D/S398D/S402D/T404D/S405D)
# UniProt Q14653, sequence (whole entry, unmodified, looked up): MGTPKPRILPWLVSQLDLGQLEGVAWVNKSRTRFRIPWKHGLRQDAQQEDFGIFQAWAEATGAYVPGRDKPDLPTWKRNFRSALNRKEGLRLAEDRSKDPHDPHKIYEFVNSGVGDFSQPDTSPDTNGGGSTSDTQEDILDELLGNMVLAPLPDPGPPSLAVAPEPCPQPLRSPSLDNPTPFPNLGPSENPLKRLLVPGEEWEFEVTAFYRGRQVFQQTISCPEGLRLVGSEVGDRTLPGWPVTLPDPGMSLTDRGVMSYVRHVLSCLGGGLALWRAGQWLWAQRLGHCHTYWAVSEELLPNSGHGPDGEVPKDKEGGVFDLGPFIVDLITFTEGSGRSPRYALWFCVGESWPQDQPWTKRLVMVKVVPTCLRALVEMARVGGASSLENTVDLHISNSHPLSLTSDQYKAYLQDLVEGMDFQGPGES
# Technique: protein-binding microarray
# Form: double-stranded DNA, one strand shown
# Sample: in vitro
# Concentration: 2540 nM top
# Notes: 60-bp whole probe
# Added: salmon DNA 0.4 mg/ml
# Baseline: random background probes
# Reading: higher = stronger binding
# All sequences stand within: GCCTAGCAC … GTCTTGATTCGCTTGACGCTGCTG
Strand,fitted relative affinity [z-score]
ATAGATTTCGGGTATCGATTAGTGCTA,1.67
GACGGTATCGGTTATCGGGACGTGCTA,3.98
TACCTTAGGTTTTCTGGTTCCGTGCTA,0.14
GACGGACTCGGTTTCGGGACGTGCTAG,2.86
TTAAATTCCAGTTTCGATTAGTGCTAG,5
GTTGTTTTAAATTCTAATTAGTGCTAG,1.85
TTAGGGTTCGACTTTCGGTTAGTGCTA,1.33
GACGAACTGAGTTTTGAGACGTGCTAG,0.0364
GACGGTCTCGGTTTCTGGACGTGCTAG,2.88
GACGGAGTGGGACTGGGGACGTGCTAG,-0.836
GTAGATCTCAGTCTCGATTAGTGCTAG,0.669
GACGGTATCCTACTGCTAACGTGCTAG,2.71
TTAGATATCAGTTCCGATTAGTGCTAG,2.65
TTAGATTTCCGACTGGATTAGTGCTAG,1.43
GACGGGCTCCTTCTCCTGACGTGCTAG,2.11

# Excerpt of the above (block 4):
Strand,fitted relative affinity [z-score]
GTAGATCTCAGTCTCGATTAGTGCTAG,0.669
GACGGGCTCCTTCTCCTGACGTGCTAG,2.11
TTAAATTCCAGTTTCGATTAGTGCTAG,5
TTAGATTTCCGACTGGATTAGTGCTAG,1.43
